{"data": "Experimental data gathered from unrelated publications", "EGFR L861Q": "Epidermal growth factor receptor (EGFR, Homo sapiens, UniProt P00533, L861Q)", "EGFR": "Epidermal growth factor receptor (EGFR, Homo sapiens, UniProt P00533)", "note": "Each line is one published result; not all experiments were run side by side."}
{"SMILES": "Cc1ccc(-c2c(/C=C(\\C#N)C(=O)NC(C)C)n(CCCO)c3ncnc(N)c23)cc1", "target": "EGFR L861Q", "effect on": "cell-free assay", "technique": "competition with immobilised ligand", "tested at": "1 µM", "remaining binding [%]": 100}
{"SMILES": "CNC(=O)C1CCN(c2cc(C)c(F)cc2NC(=O)c2ccc(-c3cc(O)ccc3C)c(C)c2)CC1", "target": "EGFR (Homo sapiens, UniProt P00533, L858R)", "effect on": "binding", "technique": "competition with immobilised ligand", "tested at": "1 µM", "remaining binding [%]": 31}
{"SMILES": "CNC1C[S+]2CC[S+]3CC[S+](C1)[Ru-4]321([N]=C=S)[n]2c3ccc(OC)cc3c3c4c(c5cc(F)c[n+]1c5c32)C(=O)NC4=O (stereo not shown)", "target": "EGFR", "technique": "KinomeScan", "tested at": "0.1 µM", "baseline": "untreated", "remaining binding [%]": 100}
{"SMILES": "COc1ccc(NC(=O)Nc2ccc3c(c2)C(=O)N(C(C)CO)CC(C)C(CN(C)Cc2ccc4c(c2)OCO4)O3)cc1 (stereo not shown)", "target": "EGFR", "effect on": "binding", "technique": "competition with immobilised ligand", "tested at": "10 µM", "remaining binding [%]": 66}
{"SMILES": "C=CC(=O)N1CCCC(n2c(=O)c3ncccc3n(Cc3ccc(Oc4ccccc4)cc3)c2=O)C1 (stereo not shown)", "target": "EGFR (Homo sapiens, UniProt P00533, G719S)", "effect on": "cell-free assay", "technique": "competition with immobilised ligand", "tested at": "1 µM", "remaining binding [%]": 81}
{"SMILES": "CNS(=O)(=O)Nc1nccc(Cc2c(C)c3ccc(Oc4ncccc4F)cc3oc2=O)c1F", "target": "EGFR", "effect on": "cell-free assay", "technique": "competition with immobilised ligand", "tested at": "10 µM", "remaining binding [%]": 96}
{"SMILES": "CCN1CCN(Cc2ccc(C(=O)Nc3ccc(C)c(NCc4cnc5[nH]ccc5c4OC)c3)cc2C(F)(F)F)CC1", "target": "EGFR L861Q", "effect on": "binding", "technique": "competition with immobilised ligand", "tested at": "1 µM", "remaining binding [%]": 0}
{"SMILES": "C=CC(=O)N1CCc2ccc(-n3c(=O)ccc4cnc5ccc(-c6cnn(C)c6)cc5c43)cc21", "target": "EGFR L861Q", "technique": "KINOMEscan", "tested at": "1 µM", "baseline": "DMSO control", "remaining binding [%]": 67}
{"SMILES": "CCN1CCN(Cc2ccc(NC(=O)c3ccc(C)c(NC(=O)c4cncc(-c5cccs5)c4)c3)cc2C(F)(F)F)CC1", "target": "EGFR (Homo sapiens, UniProt P00533, A750P/del747-749)", "effect on": "binding", "technique": "competition with immobilised ligand", "tested at": "1 µM", "remaining binding [%]": 0.1}
{"SMILES": "CN1CCN(Cc2ccc(NC(=O)c3cccc(C#Cc4cnc(N)c5ncccc45)c3)cc2C(F)(F)F)CC1", "target": "EGFR", "effect on": "cell-free assay", "technique": "competition with immobilised ligand", "tested at": "50 nM", "remaining binding [%]": 43}
{"SMILES": "Nc1ncc2c(n1)-c1c([nH]c3ccc(C4=CCOCC4)cc13)CCC2", "target": "EGFR (Homo sapiens, UniProt P00533, del752-759)", "effect on": "binding", "technique": "competition with immobilised ligand", "tested at": "1 µM", "remaining binding [%]": 76}
{"SMILES": "COc1c(Cl)cccc1Nc1c(-c2ccncc2C#C[C@@]2(C)CCCN2C(=O)/C=C/CN(C)C)[nH]c2c1C(=O)NCC2", "target": "EGFR (Homo sapiens, UniProt P00533, G719C)", "effect on": "cell-free assay", "technique": "competition with immobilised ligand", "tested at": "3 µM", "remaining binding [%]": 0}
{"SMILES": "CC(C)=CC1OC(C)(C)C2C=C3C(=O)C(Cl)=CC(O)C3C3C(O)C4OC4C(=O)C132 (stereo not shown)", "target": "EGFR (Homo sapiens, UniProt P00533, del746-750)", "effect on": "cell-free assay", "technique": "competition with immobilised ligand", "tested at": "10 µM", "remaining binding [%]": 52}
